Measured values from different studies.
± marks the error that the study gave.

| SMILES | assay | system | setting | clearance |
| --- | --- | --- | --- | --- |
| C=CC(=O)Nc1cc(Nc2ncc(C(=O)OC(C)C)c(-c3cn(C)c4ccccc34)n2)c(OC)cc1N(C)CCN(C)C | two-compartment PK model | mouse | – | 443 mL/min |
| OCc1ccc(-c2nn(Cc3ccccc3)c3ccccc23)o1 | – | male CD1 mouse, plasma | intravenous, 5 mg/kg | 77.9 mL/min/kg |
| CCOC(=O)C1=C(CN2CCC[C@@H]2C(=O)Nc2ccc(B(O)O)cc2)NC(c2nccs2)=N[C@H]1c1ccc(F)cc1Br | – | ICR mouse, plasma | intravenous, 2 mg/kg | 46.8 ± 6.63 mL/min/kg |
| C[C@@H]1CN(Cc2ncccn2)C[C@H]1c1nc2c(cnn2C2CCOCC2)c(=O)[nH]1 | – | mouse, blood | intravenous, 0.3 mg/kg | 61.7 mL/min/kg |
| C=C1CN2CCC[C@@]2(COc2nc(N3CCN(C(=O)/C=C/c4cccc5c4CNCC5)C[C@@H]3C)c3cc(Cl)c(-c4nc(N)cc(C)c4C(F)(F)F)c(F)c3n2)C1 | – | female CD-1 mouse, whole blood | intravenous, 1 mg/kg, DMSO 10%, PEG400 35%, water 55% | 3.4 mL/min/kg |
| C=CC(=O)Nc1cc(Nc2nccc(Nc3cc(Cl)c(F)cc3C(C)(C)O)n2)c(OC)cc1N1CC[C@@H](N(C)C)C1 | two-compartment PK model | mouse | – | 7.33 mL/min |
| CN(C)c1ccc(Nc2nc(-c3ccncc3)nc3c2CC(N)CC3)cc1 (centres unmarked) | – | male C57BL/6J mouse, plasma | intraperitoneal, 10 mg/kg | 120 mL/min/kg |
| CCCc1cc(C(=O)OC)c(NC(=O)C2CCN(C(C)=O)CC2)s1 | – | CD1 mouse, male, plasma | intravenous, 1 mg/kg | 438 ± 37 mL/min/kg |
| C=CC(=O)Nc1cc(Nc2nccc(-c3c[nH]c4ccccc34)n2)c(OC)cc1N(C)CCN(C)C | – | NSG mouse, plasma | population PK model, with: ABT | 73.2 mL/min/kg |
| COc1ccc(C(O)COc2ccc(-c3csc(-c4ccc(OCC(O)c5ccc(OC)c(OC)c5)cc4)n3)cc2)cc1OC (centres unmarked) | – | mouse C57BL/6J, plasma | intravenous, 3 mg/kg | 10.5 mL/min/kg |
| O=c1c2cc(Cl)c(CO)cc2[nH]c(=S)n1Cc1cccnc1 | – | mouse, plasma | intravenous | 34.8 mL/min/kg |
| CC(=O)N(C)C1CCN(c2cc(F)cc(NC(=O)c3cc4c(F)ccc(C)c4[nH]3)c2)C1 (centres unmarked) | – | CD1 mouse | intravenous, 1 mg/kg | 24.2 mL/min/kg |
| CC[C@H](C)[C@@H]1NC(=O)[C@@](C)(NC(=O)[C@H](CCCNC(=N)N)NC(=O)[C@H](CC(C)C)NC(=O)[C@@H](NC(=O)[C@H](CCC(N)=O)NC(=O)[C@H](CC(C)C)NC(C)=O)[C@@H](C)O)CCCC=CCCC[C@@](C)(C(=O)N[C@@H](CC(C)C)C(=O)N[C@@H](Cc2ccc3ccccc3c2)C(N)=O)NC(=O)[C@H](CCCNC(=N)N)NC(=O)[C@H](CCC(N)=O)NC1=O | – | BALB/c mouse, plasma | ip, 5 mg/kg | 1 mL/min/kg |
| NCc1ccc(-c2nn(Cc3ccccc3)c3ccccc23)o1 | – | male CD1 mouse, plasma | intravenous, 5 mg/kg | 67.1 mL/min/kg |

Some of these lines once more:
| SMILES | assay | system | setting | clearance |
| --- | --- | --- | --- | --- |
| C=CC(=O)Nc1cc(Nc2nccc(-c3c[nH]c4ccccc34)n2)c(OC)cc1N(C)CCN(C)C | – | NSG mouse, plasma | population PK model, with: ABT | 73.2 mL/min/kg |
